Experimental data collected from several papers.
Several values in a cell are separate wells, animals, samples, runs or records. Numbers after ± are the reported error.

The growth percent of `CCCN1CCN(c2ccc3nc(-c4ccc5nc(-c6cc(OC)ccc6OC)[nH]c5c4)[nH]c3c2)CC1` is reported as -25.6% (SR; SRB; 10 µM, 48 h).
`CSc1cc(Oc2ccnc3[nH]c(=O)cnc23)ccc1NC(=O)Nc1cc(C(C)(C)C)nn1-c1ccccc1`: “phospho-Akt Ser473/total ratio” 0.43 (patient-derived cell line clone A; RPPA; 1 µM, 4 h; relative to: DMSO).
Under “number of unchanged genes”, `Cn1cc(Nc2nccc(-c3ccc4c(c3)CN(C3COC3)CC[C@H]4NC(=O)c3cn(C(C)(C)C)nn3)n2)cn1` is recorded as 1840 (human B cells; 100 nM, 64 h, stimulation-downregulated genes, added: CD40L, anti-IgM, IL-4).
Under “late apoptotic cells”, `CC(=O)N[C@@H](CS)C(=O)O` is recorded as 3.05 ± 0.55% (HeLa; annexin V/PI flow cytometry; concentration not given, 48 h).
`Cc1nc(N(Cc2ccccc2)c2ccc3c(c2)/C(=C/c2ccccc2)C(=O)N3Cc2ccccc2)c2ccccc2n1` (mixture of isomers): “cells in G2/M phase” 13.9% (LLC; PI flow cytometry; 2.0 µM).
For `O=C1c2ccncc2C(=O)c2c1[nH]c1ccccc21`, “minimum effective concentration ratio” read 5 fold (PAH hPASMC; mitochondrial fission; relative to: A549 over PAH hPASMC).
Under “log2 fold change”, `O=c1[nH]nc(OCCCc2ccc(Cl)cc2)c(NCc2cccnc2)c1Br` is recorded as 0.337 (HEK293T; RNA-seq, item: CLU mRNA; 10 µM, 6 h; relative to: vehicle).
For `Cc1nn(CC(F)(F)F)cc1Nc1ncc(Br)c(NCc2ccc(S(N)(=O)=O)cc2)n1`, the phospho-TBK1/TBK1 ratio was 1.21 and 0.939 and 1.11 (RAW-ISG; western blot; 10 µM, added: HT-DNA; relative to: vehicle).
`CC(C)(N)c1cc(C(=O)N[C@@H]2CCc3ccc(Oc4ccnc5c4CCC(=O)N5)cc3C2)cc(C(F)(F)F)c1` has an IC75 of 0.389 µM (SK-MEL-239 C4; ERK phosphorylation, inhibitor, Western blot, item: p-ERK/total ERK; 1 h).
With `CC(=O)N[C@@H](CSC(=O)[C@]1([C@@H](O)C(C)C)NC(=O)[C@H](C)[C@@H]1O)C(=O)O` the Emax was 52% (LDR; silenced CMV-GFP reporter derepression, qHTS).
`COc1cc(/C=C/C(=O)N2CCC=CC2=O)cc(OC)c1OC` gave a mRNA level of 64 ± 3.7% (MDA-MB-468; quantitative RT-PCR, item: XIAP; 30 µM, 8 h; relative to: untreated cells).
`O=S(=O)(NCCNC/C=C/c1ccc(Br)cc1)c1cccc2cnccc12`: “Fos mRNA level” “inhibited” (Neuro2a; inhibitor, RT-qPCR; concentration not given, added: BRP 100 µg/mL).
`CC/C(=N\NC(=O)NCc1cccc(O)c1)c1ccc(O)c(C)c1O` gave a log ratio of -2.95 (SK-OV-3; gene expression, microarray, item: KCNJ16; 10 µM, 24 h; relative to: DMSO).
With `O=P1(C2CCCCC2)CCCCC1` the IL-6 level was 2.7 ± 0.28 pg/mL (SW480; ELISA; IC50, 72 h).
The fold change of `C=Cc1c2[n-]c(c1C)/C=c1\[n-]/c(c(C)c1C=C)=C\c1[n-]c(c(CCC(=O)O)c1C)/C=c1\[n-]c(c(C)c1CCC(=O)O)=C2.[Sn+4]` is reported as 1.91 (SH-SY5Y; RNA-seq, item: PHLDA1 mRNA; 5 µM, 5 h; relative to: untreated cells).
`C/C=C/c1ccc(OCC(=O)OCC(=O)NC2CC2)c(OC)c1` gave an efficacy of 58% (LDR; silenced CMV-GFP reporter derepression, qHTS).
`O=C(/C=C/C=C/C=C/C1CCCCC1)NC1=C[C@@](O)(/C=C/C=C/C=C/C(=O)NC2=C(O)CCC2=O)[C@@H]2O[C@@H]2C1=O` gave a GI50 of 14.3 µM (hcc2279; cell growth, inhibitor, CellTiter-Glo luminescence; 78 h; relative to: day 0 cell count).
The cytotoxicity of `Cn1cnc2c1c(=O)n(CC(=O)Nc1c(Cl)cccc1Cl)c(=O)n2C` is reported as 29.3% (Vero; MTT; 250 µg/mL).
Under “RPA and γH2AX foci”, `Cn1ncnc1[C@H]1c2n[nH]c(=O)c3cc(F)cc(c23)N[C@@H]1c1ccc(F)cc1` is recorded as “no effect” (T98G; immunofluorescence; 3 nM, added: temozolomide 100 µM; relative to: DMSO).
With `CCOC(=O)c1c(NC(=O)CC2Nc3cc(C)c(C)cc3NC2=O)sc(C)c1C` (stereo not drawn) the efficacy was 201% (LDR; silenced CMV-GFP reporter derepression, qHTS).
`CCCCCCCCCCCCCCCC(NCc1ccccc1O)=C1C(=O)OC(CO)C1=O` (stereo not drawn) — result for “G1 phase cells”: 30.5% (G2-synchronized tsFT210 cells; flow cytometry; 50 µM, 4 h, 32 °C, release from G2 arrest).
`COc1ccc(-n2nc(C(C)=O)s/c2=N\N=C(/C)c2ccc(NC(=O)c3ccc(Cl)cc3)cc2)cc1` gave a toxicity of 93.5% (MCF7; 2.5 µM).
For `COc1ccccc1/C=C1\SC(N2CCCCC2)=NC1=O`, EC50 read “inactive” (NG108-cl; clomeleon fluorescence, item: intracellular chloride reduction; 5 h).
Under “number of sensitive cell lines”, `NCc1cc2c(cc1F)C(=O)N(C1CCC(=O)NC1=O)C2` (stereo not drawn) is recorded as 13 (HCC cell lines; CellTiter-Glo; 50% viability drop, of 19 lines).
The efficacy of `O=C(Cn1c(=O)n(Cc2ccc(F)cc2)c(=O)c2sc3ccccc3c21)Nc1ccc(F)cc1F` is reported as 29% (LDR; silenced CMV-GFP reporter derepression, qHTS).
For `CCNc1nc(Nc2ccc(F)c(Cl)c2)c2ccccc2n1`, the cytotoxicity was 97.4% (Vero; MTT; 1000 µg/mL).
Under “surface marker level”, `Nc1cccc2c1C(=O)N(C1CCC(=O)NC1=O)C2=O` (stereo not drawn) is recorded as 56.1% (RPMI-8226; flow cytometry, item: CD5; concentration not given; relative to: comparator compound alone).
With `COc1cnc2cccc(N3CCc4c(cc(Cn5ccnc5C)cc4-c4cn(C)nc4C(F)(F)F)C3=O)c2c1` the EC50 was 5.37 µM (HARA; cell growth; 120 h).
The IC50 of `CCCCN1C[C@H](O)[C@@H](O)[C@@H](O)[C@H]1CO` is reported as 11.6 µM (sample A patient fibroblasts; Gb3 level lowering, LC-MS/MS, item: Gb3 d18:1/24:1; 216 h).
`Cn1cc(-c2ccc(-c3cncc(Cl)c3N3CCC4(CCNC4=O)CC3)cc2)cn1` — result for “log2 fold change”: 3.22 (COLO 205; gene expression, microarray, item: DEFB1 mRNA; concentration not given, 2 h; relative to: untreated cells).
For `C=CC1=C(C)c2cc3[n-]c(cc4nc(cc5[n-]c(cc1n2)c(C)c5C=C)C(C)=C4CCC(=O)O)c(CCC(=O)O)c3C.[Zn+2]`, the fold change was 1.89 (SH-SY5Y; RNA-seq, item: TNS1 mRNA; 5 µM, 5 h; relative to: untreated cells).
Under “average fractional effect”, `CC(=O)Nc1cccc(-n2c(=O)n(C3CC3)c(=O)c3c(Nc4ccc(I)cc4F)n(C)c(=O)c(C)c32)c1` is recorded as 46% (MeWo (NF1); cell viability, resazurin; 50.00 nM, 72 h; relative to: DMSO).
With `C=CCn1c(=O)c2cnc(Nc3ccc(N4CCN(C)CC4)cc3)nc2n1-c1ccc2c(n1)[C@@](O)(CC)CC2` the γH2AX-positive cells was 9.8% (Kuramochi; flow cytometry; 1 µM, 24 h).
With `CCCCS(=N)(=O)CCC(N)C(=O)O` (stereo not drawn) the remaining GSH was 0.3% (OVCAR-5; LC-ESI-MS/MS, item: glutathione; 20 µM, 24 h; relative to: untreated).
The efficacy of `CSc1nsc(/C=C/Nc2cccc(Cl)c2)c1C#N` is reported as 100% (LDR; silenced CMV-GFP reporter derepression, qHTS).
`CCCCC1(CCCC)CN(c2ccccc2)c2cc(SC)c(OCC(=O)N[C@@H](C(=O)NCC(=O)O)c3ccccc3)cc2S(=O)(=O)C1` — result for FGF19 secretion: “decreased” (differentiated Caco-2; ELISA; 1 µM, compound pre-incubation, added: 0.6 mM post-operative bile acid pools).
`CCn1cc(-c2cc(Cn3ccnc3)cc3c2CCN([C@H](c2cc(OC)ccn2)C2CC2)C3=O)c(C(F)(F)F)n1` gave an EC50 of 0.968 µM (HEC-251; cell growth, inhibitor; 120 h).
For `Clc1nc(NCc2ccco2)c2[nH]cnc2n1`, the ΔPSI was -0.206 (FD iPSC-derived cardiomyocytes; alternative splicing, RNA-seq, item: CACNA1G exon chr17:50609881-50609935; unit not given; relative to: DMSO minus compound).
For `CCCCCCOC(=O)[C@]1(O)C[C@@H]2O[C@@]1(C)n1c3ccccc3c3c4c(c5c6ccccc6n2c5c31)C(=O)NC4`, “relative cell number” read 107% (SK-OV-3; ATP; 0.1 µM, 4 days, 3D U-bottom low-attachment; relative to: untreated).
The EC50 of `CCn1cc(-c2cc(Cn3ccoc3=N)cc3c2CCN([C@@H](C)c2cc(OC)ccn2)C3=O)c(C(F)(F)F)n1` is reported as 0.529 µM (LMSU; cell growth; 120 h).
The sarcomere length of `CC(C)NCC(O)c1ccc(O)c(O)c1` (stereo not drawn) is reported as 1.66 µm (mouse ventricular cardiomyocytes; dose not given, 0.183 s).
Under “time to cell rounding”, `CC[C@H](C)[C@H](NC(=O)[C@H](CCCCN)NC(=O)[C@@H](NC(=O)[C@H](CCCNC(=N)N)NC(=O)[C@@H](NC(=O)[C@@H](CCCNC(=N)N)NC(=O)[C@@H](CCCNC(=N)N)NC(=O)[C@@H](CCCNC(=N)N)NC(=O)[C@@H](CCCNC(=N)N)NC(=O)[C@@H](CCCNC(=N)N)NC(=O)[C@H](N)CCCNC(=N)N)[C@@H](C)O)[C@@H](C)O)C(=O)N[C@@H](CC(=O)O)C(=O)N[C@@H](Cc1c[nH]c2ccccc12)C(=O)NC(C)(C)C(=O)N[C@@H](CCCCN)C(=O)N[C@H](C(=O)N[C@@H](CC(C)C)C(=O)NC(C)(C)C(=O)N[C@@H](CCCCN)C(=O)NCCCCCC(=O)NCCCC[C@H](NC(=O)CCCCCNC(=O)[C@H](CCCCN)NC(=O)C(C)(C)NC(=O)[C@H](CC(C)C)NC(=O)[C@@H](NC(=O)[C@H](CCCCN)NC(=O)C(C)(C)NC(=O)[C@H](Cc1c[nH]c2ccccc12)NC(=O)[C@H](CC(=O)O)NC(=O)[C@@H](NC(=O)[C@H](CCCCN)NC(=O)[C@@H](NC(=O)[C@H](CCCNC(=N)N)NC(=O)[C@@H](NC(=O)[C@@H](CCCNC(=N)N)NC(=O)[C@@H](CCCNC(=N)N)NC(=O)[C@@H](CCCNC(=N)N)NC(=O)[C@@H](CCCNC(=N)N)NC(=O)[C@@H](CCCNC(=N)N)NC(=O)[C@H](N)CCCNC(=N)N)[C@@H](C)O)[C@@H](C)O)[C@@H](C)CC)[C@@H](C)CC)C(N)=O)[C@@H](C)CC` is recorded as about 15 min (SK-MEL-5; microscopy; concentration not given).
`Cc1cc(Nc2ncc(Cl)c(Nc3ccccc3S(=O)(=O)C(C)C)n2)c(OC(C)C)cc1C1CCNCC1` — result for “log2 fold change”: -2.3 (CLB-GE; phosphoproteomics LC-MS/MS, item: HVCN1 phosphorylation; 200 nM, 60 min; relative to: untreated).
For `COc1ccnc(CSC(N)=Nc2ccccc2OC)c1.Cl`, the efficacy was 120% (LDR; silenced CMV-GFP reporter derepression, qHTS).
Under “point of departure”, `Cc1c(C)c2c(c(C)c1O)CCC(C)(COc1ccc(CC3SC(=O)NC3=O)cc1)O2` (stereo not drawn) is recorded as 81.3 µM (HepG2; high content imaging, item: nuclear size; 24 h, distribution mode 2).
Under “G1 phase cells”, `CCCCCCCCCCCCCCC/C(NCc1ccccc1)=C1/C(=O)OC(CO)C1=O` (stereo not drawn) is recorded as 64.6% (G2-synchronized tsFT210 cells; flow cytometry; 5 µM, 4 h, 32 °C, release from G2 arrest).
`COc1cc2ncnc(Nc3ccc(Oc4ccccc4)cc3C)c2cc1OC` has a viability of 92.1% (MeWo (NF1); resazurin; 1 µM, 72 h, added: trametinib 0 nM).
The colony number of `Cc1cnc2ccc3c(c2n1)N1CCC(O)N=C1N3C` (stereo not drawn) is reported as 0 colonies per plate (BALB/c 3T3; colony forming efficiency; 100 µM).

A few entries again:
`Cn1cc(-c2ccc(-c3cncc(Cl)c3N3CCC4(CCNC4=O)CC3)cc2)cn1` — result for “log2 fold change”: 3.22 (COLO 205; gene expression, microarray, item: DEFB1 mRNA; concentration not given, 2 h; relative to: untreated cells).
`CC(C)(N)c1cc(C(=O)N[C@@H]2CCc3ccc(Oc4ccnc5c4CCC(=O)N5)cc3C2)cc(C(F)(F)F)c1` has an IC75 of 0.389 µM (SK-MEL-239 C4; ERK phosphorylation, inhibitor, Western blot, item: p-ERK/total ERK; 1 h).
Under “RPA and γH2AX foci”, `Cn1ncnc1[C@H]1c2n[nH]c(=O)c3cc(F)cc(c23)N[C@@H]1c1ccc(F)cc1` is recorded as “no effect” (T98G; immunofluorescence; 3 nM, added: temozolomide 100 µM; relative to: DMSO).
`CC/C(=N\NC(=O)NCc1cccc(O)c1)c1ccc(O)c(C)c1O` gave a log ratio of -2.95 (SK-OV-3; gene expression, microarray, item: KCNJ16; 10 µM, 24 h; relative to: DMSO).
